# Experimental data collected from several papers.
# Protocols differ between the studies behind these lines. ± gives the spread as reported.
Compound,test,system,setting,scale,measurement,value
N=C(N)NCCC[C@@H]1NC(=O)[C@H](CCCCNC(=O)CCOCCOCCOCCOCCNC(=O)CN2CCN(CC(=O)O)CCN(CC(=O)O)CCN(CC(=O)O)CC2)NC(=O)[C@@H](Cc2ccccc2)NC(=O)[C@H](CC(=O)O)NC(=O)CNC1=O [indium-111 labelled],,"female athymic nude mice, intestine","intravenous, 3 µCi, 0.5 h, U-87 MG glioma xenograft",,tissue uptake,2.72 ± 0.5 %ID/g
CC(C)C[C@H](NC(=O)[C@@H]1CCCN1C(=O)[C@H](CCCCN)NC(=O)[C@@H](N)CO)C(=O)N1CCC[C@H]1C(=O)N[C@@H](CCC(=O)O)C(=O)N[C@H](C(=O)N[C@H](C(=O)N[C@@H](CC(=O)O)C(=O)N[C@@H](CCC(=O)O)C(=O)N[C@@H](Cc1ccc(O)cc1)C(=O)N[C@@H](Cc1cn(CCOCCOCCOCCNC(=O)CCc2ccc(O)c(CN(CCN(CC(=O)O)Cc3cc(CCC(=O)NCCCC[C@H](NC(=O)N[C@@H](CCC(=O)O)C(=O)O)C(=O)O)ccc3O)CC(=O)O)c2)nn1)C(=O)O)[C@@H](C)O)C(C)C [gallium-68 labelled],,"NMRI nu/nu mice, LNCaP tumour, lung","135.34 nmol/kg, low molar activity",,standardized uptake value,0.09 g/g
N=C(N)NCCC[C@@H]1NC(=O)[C@H](CCCCNC(=O)CC[C@H](NC(=O)CCOCCOCCOCCOCCNC(=O)CN2CCN(CC(=O)O)CCN(CC(=O)O)CCN(CC(=O)O)CC2)C(=O)NCCCC[C@@H]2NC(=O)[C@@H](Cc3ccccc3)NC(=O)[C@H](CC(=O)O)NC(=O)CNC(=O)[C@H](CCCNC(=N)N)NC2=O)NC(=O)[C@@H](Cc2ccccc2)NC(=O)[C@H](CC(=O)O)NC(=O)CNC1=O [indium-111 labelled],,"athymic nude mice, female, U-87 MG glioma xenograft, U-87 MG tumour","intravenous, 3 µCi, 0.5 h",,tissue uptake,6.14 ± 1.12 %ID/g
N=C(N)NCCC[C@@H]1NC(=O)[C@H](CCCCNC(=O)CC[C@H](NC(=O)[C@H](CCCCNC(=O)c2ccc(NN)nc2)NC(=O)c2ccc(NN)nc2)C(=O)NCCCC[C@@H]2NC(=O)[C@@H](Cc3ccccc3)NC(=O)[C@H](CC(=O)O)NC(=O)CNC(=O)[C@H](CCCNC(=N)N)NC2=O)NC(=O)[C@@H](Cc2ccccc2)NC(=O)[C@H](CC(=O)O)NC(=O)CNC1=O [technetium-99m labelled],,female athymic nude mice,"intravenous, 1 h, U-87 MG glioma xenograft",reference: tumour over blood,tissue ratio,4.7 ± 1.22
CCCC[C@H](NC(=O)CCCCCCCNC(=O)c1ccc(NN)nc1)C(=O)N[C@H]1CC(=O)NCCCC[C@@H](C(N)=O)NC(=O)[C@H](Cc2c[nH]c3ccccc23)NC(=O)[C@H](CCCNC(=N)N)NC(=O)[C@@H](Cc2ccccc2)NC(=O)[C@H](Cc2c[nH]cn2)NC1=O [technetium-99m labelled],,"C57 mouse, B16/F1 melanoma, kidneys","intravenous, 4 h",,uptake,6.1 ± 0.72 %ID/g
CSCC[C@H](NC(=O)[C@H](CC(C)C)NC(=O)[C@H](Cc1c[nH]cn1)NC(=O)CNC(=O)[C@@H](NC(=O)[C@H](C)NC(=O)[C@H](Cc1c[nH]c2ccccc12)NC(=O)[C@H](CCC(N)=O)NC(=O)[C@H](CC(N)=O)NC(=O)CNC(=O)[C@H](Cc1ccc(O)cc1)NC(=O)[C@H](CCCNC(=N)N)NC(=O)[C@H](CCC(N)=O)NC(=O)[C@@H]1CCCN1C(=O)CN1CCN(CC(=O)O)CCN(CC(=O)O)CCN(CC(=O)O)CC1)C(C)C)C(N)=O [indium-111 labelled],radio-HPLC,"male Swiss nu/nu mice, blood","intravenous, 1 nmol, 5 min",,intact peptide,21.2 ± 0.8%
N=C(N)NCCC[C@@H]1NC(=O)CNC(=O)[C@H](CC(N)=O)NC(=O)[C@@H](NC(=O)CNC(=O)CNC(=O)CNC(=O)CN2CCN(CC(=O)O)CCN(CC(=O)O)CCN(CC(=O)O)CC2)CSSC[C@@H](C(=O)O)NC1=O,T1-weighted MRI,"BALB/c nude mouse, HT-1080 xenograft",i.p.,,time to peak tumour/non-tumour ratio,2 h
N=C(N)NCCC[C@@H]1NC(=O)[C@H](CCCCNC(=O)CCOCCOCCOCCOCCNC(=O)CC[C@H](NC(=O)CCOCCOCCOCCOCCNC(=O)CC[C@H](NC(=O)CN2CCN(CC(=O)O)CCN(CC(=O)O)CCN(CC(=O)O)CC2)C(=O)NCCOCCOCCOCCOCCC(=O)N[C@@H](CCC(=O)NCCOCCOCCOCCOCCC(=O)NCCCC[C@@H]2NC(=O)[C@@H](Cc3ccccc3)NC(=O)[C@H](CC(=O)O)NC(=O)CNC(=O)[C@H](CCCNC(=N)N)NC2=O)C(=O)NCCOCCOCCOCCOCCC(=O)NCCCC[C@@H]2NC(=O)[C@@H](Cc3ccccc3)NC(=O)[C@H](CC(=O)O)NC(=O)CNC(=O)[C@H](CCCNC(=N)N)NC2=O)C(=O)NCCOCCOCCOCCOCCC(=O)NCCCC[C@@H]2NC(=O)[C@@H](Cc3ccccc3)NC(=O)[C@H](CC(=O)O)NC(=O)CNC(=O)[C@H](CCCNC(=N)N)NC2=O)NC(=O)[C@@H](Cc2ccccc2)NC(=O)[C@H](CC(=O)O)NC(=O)CNC1=O [indium-111 labelled],,"female athymic nude mice, kidney","intravenous, 3 µCi, 72 h, U-87 MG glioma xenograft",,tissue uptake,3.1 ± 0.38 %ID/g
CCCC[C@H](NC(=O)CNC(=O)CNC(=O)c1ccc(NN)nc1)C(=O)N[C@H]1CC(=O)NCCCC[C@@H](C(N)=O)NC(=O)[C@H](Cc2c[nH]c3ccccc23)NC(=O)[C@H](CCCNC(=N)N)NC(=O)[C@@H](Cc2ccccc2)NC(=O)[C@H](Cc2c[nH]cn2)NC1=O [technetium-99m labelled],,"C57 mouse, B16/F1 melanoma-bearing","intravenous, 2 h",reference: tumour over kidney,tissue uptake ratio,1.88
N=C(N)NCCC[C@@H]1NC(=O)[C@H](CCCCNC(=O)CC[C@H](NC(=O)CCOCCOCCOCCOCCNC(=O)CC[C@H](NC(=O)CN2CCN(CC(=O)O)CCN(CC(=O)O)CCN(CC(=O)O)CC2)C(=O)NCCOCCOCCOCCOCCC(=O)N[C@@H](CCC(=O)NCCCC[C@@H]2NC(=O)[C@@H](Cc3ccccc3)NC(=O)[C@H](CC(=O)O)NC(=O)CNC(=O)[C@H](CCCNC(=N)N)NC2=O)C(=O)NCCCC[C@@H]2NC(=O)[C@@H](Cc3ccccc3)NC(=O)[C@H](CC(=O)O)NC(=O)CNC(=O)[C@H](CCCNC(=N)N)NC2=O)C(=O)NCCCC[C@@H]2NC(=O)[C@@H](Cc3ccccc3)NC(=O)[C@H](CC(=O)O)NC(=O)CNC(=O)[C@H](CCCNC(=N)N)NC2=O)NC(=O)[C@@H](Cc2ccccc2)NC(=O)[C@H](CC(=O)O)NC(=O)CNC1=O [indium-111 labelled],planar imaging,"athymic nude mouse, U-87 MG xenograft, tumour",intravenous,,retention half-life,> 30 h
CSCC[C@H](NC(=O)[C@H](CC(C)C)NC(=O)[C@H](Cc1c[nH]cn1)NC(=O)CNC(=O)[C@@H](NC(=O)[C@H](C)NC(=O)[C@H](Cc1c[nH]c2ccccc12)NC(=O)[C@H](CCC(N)=O)NC(=O)CCCCCNC(=O)CNC(=O)CNC(=O)CNC(=O)CSC(C)=O)C(C)C)C(N)=O [technetium-99m labelled],,"healthy Swiss mouse, stomach, contents removed","intravenous, 18.5 MBq, 5 min",,tissue uptake,1.49 ± 0.2 %ID/g
N=C(N)NCCC[C@@H]1NC(=O)[C@H](CCCCNC(=O)CC[C@H](NC(=S)Nc2ccc(C[C@H]3CN(CC(=O)O)CCN(CC(=O)O)CCN3CC(=O)O)cc2)C(=O)NCCCC[C@@H]2NC(=O)[C@@H](Cc3ccccc3)NC(=O)[C@H](CC(=O)O)NC(=O)CNC(=O)[C@H](CCCNC(=N)N)NC2=O)NC(=O)[C@@H](Cc2ccccc2)NC(=O)[C@H](CC(=O)O)NC(=O)CNC1=O,HPLC and LC-MS,acetate buffer,"pH 4, heating, radiolabeling conditions",,stability,unstable
CCCC[C@H](NC(=O)CNC(=O)CNC(=O)CNC(=O)c1ccc(NN)nc1)C(=O)N[C@H]1CC(=O)NCCCC[C@@H](C(N)=O)NC(=O)[C@H](Cc2c[nH]c3ccccc23)NC(=O)[C@H](CCCNC(=N)N)NC(=O)[C@@H](Cc2ccccc2)NC(=O)[C@H](Cc2c[nH]cn2)NC1=O [technetium-99m labelled],,"C57 mouse, B16/F1 melanoma",2 h,reference: tumour over kidney,uptake ratio,1.92

# Excerpt of the above:
Compound,test,system,setting,scale,measurement,value
CCCC[C@H](NC(=O)CNC(=O)CNC(=O)CNC(=O)c1ccc(NN)nc1)C(=O)N[C@H]1CC(=O)NCCCC[C@@H](C(N)=O)NC(=O)[C@H](Cc2c[nH]c3ccccc23)NC(=O)[C@H](CCCNC(=N)N)NC(=O)[C@@H](Cc2ccccc2)NC(=O)[C@H](Cc2c[nH]cn2)NC1=O [technetium-99m labelled],,"C57 mouse, B16/F1 melanoma",2 h,reference: tumour over kidney,uptake ratio,1.92
N=C(N)NCCC[C@@H]1NC(=O)[C@H](CCCCNC(=O)CCOCCOCCOCCOCCNC(=O)CN2CCN(CC(=O)O)CCN(CC(=O)O)CCN(CC(=O)O)CC2)NC(=O)[C@@H](Cc2ccccc2)NC(=O)[C@H](CC(=O)O)NC(=O)CNC1=O [indium-111 labelled],,"female athymic nude mice, intestine","intravenous, 3 µCi, 0.5 h, U-87 MG glioma xenograft",,tissue uptake,2.72 ± 0.5 %ID/g
